Assay results gathered from unrelated publications.
Protocols differ between the studies behind these lines. ± marks the error that the study gave.
Sequence of UniProt P07384 (whole entry, looked up): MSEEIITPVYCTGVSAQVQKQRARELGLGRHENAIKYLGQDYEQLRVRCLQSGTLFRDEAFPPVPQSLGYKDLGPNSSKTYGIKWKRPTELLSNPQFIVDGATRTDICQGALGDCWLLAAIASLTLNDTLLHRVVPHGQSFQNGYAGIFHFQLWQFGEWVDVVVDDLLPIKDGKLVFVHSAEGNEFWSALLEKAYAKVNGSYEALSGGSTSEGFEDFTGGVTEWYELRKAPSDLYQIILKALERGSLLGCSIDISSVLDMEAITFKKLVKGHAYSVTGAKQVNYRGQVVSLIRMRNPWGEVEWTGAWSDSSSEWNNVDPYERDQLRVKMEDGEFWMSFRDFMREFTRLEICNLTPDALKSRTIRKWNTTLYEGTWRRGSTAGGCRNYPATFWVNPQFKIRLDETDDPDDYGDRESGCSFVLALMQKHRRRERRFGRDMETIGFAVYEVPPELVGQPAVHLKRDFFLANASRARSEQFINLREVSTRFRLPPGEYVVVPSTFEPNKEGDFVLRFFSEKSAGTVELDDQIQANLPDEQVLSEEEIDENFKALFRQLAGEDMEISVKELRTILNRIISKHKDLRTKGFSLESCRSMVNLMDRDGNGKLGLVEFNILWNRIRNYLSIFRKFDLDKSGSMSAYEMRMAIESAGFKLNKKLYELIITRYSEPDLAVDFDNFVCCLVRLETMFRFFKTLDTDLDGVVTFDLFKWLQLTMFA
Sequence of UniProt Q92973 (whole entry, looked up): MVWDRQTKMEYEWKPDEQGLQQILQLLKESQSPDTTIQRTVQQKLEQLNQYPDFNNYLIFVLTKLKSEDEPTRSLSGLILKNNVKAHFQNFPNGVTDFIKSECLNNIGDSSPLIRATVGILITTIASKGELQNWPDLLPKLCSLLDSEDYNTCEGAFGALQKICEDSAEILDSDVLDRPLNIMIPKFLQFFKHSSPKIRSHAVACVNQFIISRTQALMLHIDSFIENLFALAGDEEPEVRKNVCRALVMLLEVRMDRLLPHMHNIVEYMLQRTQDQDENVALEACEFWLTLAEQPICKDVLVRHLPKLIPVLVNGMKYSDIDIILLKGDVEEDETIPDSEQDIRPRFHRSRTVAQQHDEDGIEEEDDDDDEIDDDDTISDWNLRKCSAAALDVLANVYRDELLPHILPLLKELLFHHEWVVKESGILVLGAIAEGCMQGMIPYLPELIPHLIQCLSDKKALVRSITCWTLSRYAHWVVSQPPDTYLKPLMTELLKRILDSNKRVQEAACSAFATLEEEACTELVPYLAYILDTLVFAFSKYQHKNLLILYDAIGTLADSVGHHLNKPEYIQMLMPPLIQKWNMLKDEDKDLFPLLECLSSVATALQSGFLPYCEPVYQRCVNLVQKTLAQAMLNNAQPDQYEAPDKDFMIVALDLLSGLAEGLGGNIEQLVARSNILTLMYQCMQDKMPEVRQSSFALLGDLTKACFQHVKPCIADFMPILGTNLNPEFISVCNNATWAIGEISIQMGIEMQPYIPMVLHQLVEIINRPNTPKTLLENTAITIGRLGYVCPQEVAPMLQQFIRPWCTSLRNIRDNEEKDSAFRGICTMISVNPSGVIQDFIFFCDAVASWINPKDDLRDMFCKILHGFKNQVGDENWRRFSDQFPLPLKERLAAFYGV

Structure (SMILES)	tested on	assay	test system	setting	how to read	measurement	result
N#C[C@@]1(n2ccc(N)nc2=O)O[C@H](CO)[C@@H](O)[C@H]1O	Salmonella typhimurium		TA1535	25 µM, without S9		viability	105%
CN1CCN(c2ccc(Nc3nccc(-c4ccncc4)n3)cc2C(F)(F)F)CC1	Danio rerio		embryos	5 µM, 5 days		toxicity	30 ± 16%
Cn1c(Cn2ccc(C(F)(F)F)c(Oc3cc(Cl)cc(C#N)c3)c2=O)n[nH]c1=O	HIV-1	MTT	MT4, RT L100I/V179D/Y181C mutant		relative to: CC50 over EC50	selectivity index	> 1540
C[C@]1(CO)Cc2ncn(-c3ccc(C#N)c(Cl)c3)c2C(=O)O1			human, Chinese, plasma	60 mg single dose, geometric mean		Cmax	3.56 µM
COc1cccc(-c2n[nH]c(SCc3ccccn3)n2)c1OC	Escherichia coli	preincubation Ames test	WP2 uvrA	2.0 mg per plate, with: rat liver S9		revertant colonies per plate	16
CN1CCCN(S(=O)(=O)c2ccc(-c3ccc4ncc(C#N)c(Nc5ccc(OCc6cccc(F)c6)c(Cl)c5)c4c3)cc2)CC1	Trypanosoma cruzi		NIH 3T3, 2% FBS medium	96 h	relative to: NIH 3T3 TC50 over T. cruzi EC50	selectivity ratio	262
CCc1ccc(CC/C=C/c2ccc3c(c2)C(=O)CC3)cc1			Sprague-Dawley rat, male	oral, 30 mg/kg/day, 14 days		AST serum activity	115 U/L
Fc1ccc(C2=CCNCC2)cc1	Salmonella typhimurium	SOS/umu test	TA1535/pSK1002	0.031 mg/mL, 4 h, without S9, full range		survival	96.3%
O=C(NC(=O)c1ccccc1Cl)Nc1ccc(Cl)cc1	Plutella xylostella	leaf dipping		50 mg/L, 96 h		mortality	45.2 ± 4.5%
CO[C@H]1C[C@@H]2CC[C@@H](C)[C@@](O)(O2)C(=O)C(=O)N2CCCC[C@H]2C(=O)O[C@H]([C@H](C)C[C@@H]2CC[C@@H](OC(=O)NCCOCCOCCOCCOCCOCCOCCOCCOCCC(=O)N3CCc4cc(Cn5nc(-c6ccc7oc(N)nc7c6)c6c(N)ncnc65)ccc4C3)[C@H](OC)C2)C[C@@H](O)[C@H](C)/C=C(\C)[C@@H](O)[C@@H](OC)C(=O)[C@H](C)C[C@H](C)/C=C/C=C/C=C/1C		phase 1 dose escalation, item: headache	advanced solid tumour patients	intravenous, 16 mg weekly, any grade		TRAE incidence	50%
CN1CCCN(S(=O)(=O)c2ccc(-c3ccc4c(Nc5ccc(OCc6cccc(F)c6)c(Cl)c5)nncc4c3)cc2)CC1	Trypanosoma cruzi		NIH 3T3, 2% FBS medium	96 h	relative to: NIH 3T3 TC50 over T. cruzi EC50	selectivity ratio	34
OC(CCN1CC=C(c2ccc(F)cc2)CC1)c1ccc(F)c2ccccc12 (stereo not shown)	Salmonella typhimurium	SOS/umu test	TA1535/pSK1002, TGA medium	0.000244 mg/mL, 4 h, without S9		survival	118%
COc1cc2c(Oc3ccc4[nH]c(C)cc4c3F)ccnc2cc1OCC1(N)CC1			paediatric recurrent refractory sarcoma	10 mg		Hyperthyroidism incidence	0%
CC[C@H](C)[C@@H]1NC(=O)[C@@H]2CCCN2C(=O)[C@H](CC(C)C)NC(=O)[C@H](CC(C)C)NC(=O)CNC(=O)[C@@H](NC(=O)[C@@H](NC(=O)[C@H](CC(=O)O)NC(=O)CNC(=O)[C@@H](NC(=O)[C@H](C)NC(=O)CNC(=O)[C@H](CCCCN)NC(=O)[C@H](CC(C)C)NC(=O)[C@H](CC(C)C)NC(=O)[C@H](CCCCN)NC(=O)CNC(=O)[C@@H](NC(=O)[C@@H](N)CC(C)C)C(C)C)C(C)C)C(C)C)CSSC[C@@H](C(=O)O)NC1=O		RNA-seq, item: Ncf4	mouse, traumatic brain injury model, frontal cortex and hippocampus	dose not given	relative to: TBI alone	log2 fold change	-2.52
[Cl-].[Cl-].[Pt+2].[Ru+2].c1ccc(-c2nccnc2-c2ccccn2)nc1.c1cnc2c(c1)ccc1cccnc12.c1cnc2c(c1)ccc1cccnc12	Danio rerio		embryos	15 µM, 24 h		survival rate	90 ± 2.4%
CN1CCCN(S(=O)(=O)c2ccc(-c3ccc4nccc(Nc5ccc(OCc6cccc(F)c6)c(Cl)c5)c4c3)cc2)CC1	Trypanosoma cruzi		NIH 3T3, 2% FBS medium	96 h	relative to: NIH 3T3 TC50 over T. cruzi EC50	selectivity ratio	19
C[C@H]1CN(c2n[nH]c3nc(N[C@H]4CC[C@H](NS(=O)(=O)CCC(F)(F)F)CC4)ncc23)CCO1	Transportin-1 (TNPO1, Homo sapiens, UniProt Q92973)	inhibitor, Kinobeads competition profiling		0.032 µM	relative to: vehicle	relative abundance	0.97
COc1ccc(-n2nc(C(C)=O)s/c2=N\N=C(/C)c2ccc(NC(C)=O)cc2)cc1	WI-38			5 µM		toxicity	96%
CC1(F)CN(C(=O)Cn2c(=O)c(C(=O)NCc3ccc(Cl)cc3)cc3nc(N4CCNC4=O)cnc32)C1	herpes simplex virus 1	cytopathic effect			relative to: CC50 over EC50	selectivity index	> 77.9
CC(=O)N1CCC(C(=O)N2CCN3C(=O)c4cc(-c5ccccc5)ccc4NC(=O)C3C2)CC1 (stereo not shown)	Escherichia coli		WP2 uvrA	15.8 µg/plate, without S9		revertants per plate	18.5
[Cl-].[Cl-].[Pt+2].[Ru+2].c1ccc(-c2nc3cc4ccccc4cc3nc2-c2ccccn2)nc1.c1cnc2c(c1)ccc1cccnc12.c1cnc2c(c1)ccc1cccnc12	Danio rerio		embryos	60 µM, 0 h		survival rate	100%
O=[N+]([O-])c1ccc(N2CCN(CCC(O)c3ccc(F)cc3)CC2)c(C(F)(F)F)c1 (stereo not shown)	Salmonella typhimurium	SOS/umu test	TA1535/pSK1002	0.002 mg/mL, 4 h, without S9, lower range		survival	111%
C[C@@H](O)[C@@H](CO)NC(=O)[C@@H](CCCNC(=N)N)NC(=O)[C@@H]1CCCN1C(=O)[C@@H]1CSSC[C@H](NC(=O)[C@H](Cc2ccccc2)NC(=O)CN2CCN(CC(=O)O)CCN(CC(=O)O)CCN(CC(=O)O)CC2)C(=O)N[C@@H](Cc2ccc(O)cc2)C(=O)N[C@@H](Cc2ccccc2)C(=O)N[C@@H](CCC(N)=O)C(=O)N[C@@H](CC(N)=O)C(=O)N1 [gallium-68 labelled]			healthy Wistar rat, heart	intravenous, 8 MBq, 120 min, individual animals		tissue uptake	0.03 %ID/g
CC(C)N(C)N=O	Salmonella typhimurium	mutagenicity, Ames plate incorporation	TA98	150 µg/plate, 3 d, without S9, methanol		revertant colonies per plate	28.3 ± 1
O=[N+]([O-])c1ccc(N2CCC(NCCC(O)c3ccc(F)c4ccccc34)CC2)c(C(F)(F)F)c1 (stereo not shown)	Salmonella typhimurium	SOS/umu test	TA1535/pSK1002, TGA medium	3.05e-05 mg/mL, 4 h, without S9		survival	113%
Nc1ccn([C@@H]2CS[C@H](CO)O2)c(=O)n1	HIV-1	MTT	MT4, RT L100I/V179D/Y181C mutant		relative to: CC50 over EC50	selectivity index	> 71
COc1cc(Nc2ncc(F)c(Nc3ccc4c(n3)NC(=O)C(C)(C)O4)n2)cc(OC)c1OC	CAPN1 (Homo sapiens, UniProt P07384)					IC50	> 10 µM
Cc1cc(C(=O)NC(C)(C)COc2cccc3c2C(N)=NS(=O)(=O)N3)cc(C)n1	Salmonella typhimurium	Ames test, confirmatory	TA100	5000 µg/plate	relative to: solvent control	revertant ratio	0.8

Some of these lines once more:
Structure (SMILES)	tested on	assay	test system	setting	how to read	measurement	result
CC(C)N(C)N=O	Salmonella typhimurium	mutagenicity, Ames plate incorporation	TA98	150 µg/plate, 3 d, without S9, methanol		revertant colonies per plate	28.3 ± 1
Fc1ccc(C2=CCNCC2)cc1	Salmonella typhimurium	SOS/umu test	TA1535/pSK1002	0.031 mg/mL, 4 h, without S9, full range		survival	96.3%
